Assay results from different studies.
Lines come from different studies, so protocols differ. Several values in a cell are separate wells, animals, samples, runs or records. ± gives the spread as reported.
Sequence of UniProt Q96GX5 (whole entry, looked up): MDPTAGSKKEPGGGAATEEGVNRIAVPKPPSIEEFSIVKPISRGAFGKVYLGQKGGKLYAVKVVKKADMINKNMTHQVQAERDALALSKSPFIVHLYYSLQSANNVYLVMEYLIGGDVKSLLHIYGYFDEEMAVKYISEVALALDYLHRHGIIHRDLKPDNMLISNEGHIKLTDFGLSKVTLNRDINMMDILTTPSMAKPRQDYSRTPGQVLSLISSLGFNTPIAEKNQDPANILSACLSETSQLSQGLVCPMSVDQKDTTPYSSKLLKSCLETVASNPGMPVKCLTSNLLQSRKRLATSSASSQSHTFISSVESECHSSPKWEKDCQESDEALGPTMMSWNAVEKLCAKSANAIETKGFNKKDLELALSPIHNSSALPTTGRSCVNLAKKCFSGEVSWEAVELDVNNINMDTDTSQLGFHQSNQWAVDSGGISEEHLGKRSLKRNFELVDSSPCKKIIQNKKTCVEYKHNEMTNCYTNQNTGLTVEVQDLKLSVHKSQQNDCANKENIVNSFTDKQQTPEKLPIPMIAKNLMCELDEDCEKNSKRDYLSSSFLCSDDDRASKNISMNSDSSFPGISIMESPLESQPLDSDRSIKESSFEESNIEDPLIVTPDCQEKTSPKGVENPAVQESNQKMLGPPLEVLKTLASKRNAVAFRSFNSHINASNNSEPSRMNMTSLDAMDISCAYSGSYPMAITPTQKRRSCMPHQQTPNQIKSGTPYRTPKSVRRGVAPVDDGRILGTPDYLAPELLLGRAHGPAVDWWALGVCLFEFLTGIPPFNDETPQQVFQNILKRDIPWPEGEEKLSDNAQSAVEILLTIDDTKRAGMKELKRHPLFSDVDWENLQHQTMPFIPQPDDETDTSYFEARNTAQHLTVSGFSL

CC[C@@H]([C@H](C)O)n1ncn(-c2ccc(N3CCN(c4ccc(OC[C@@H]5CO[C@@](Cn6cncn6)(c6ccc(F)cc6F)C5)cc4)CC3)cc2)c1=O — stability relative error (rat plasma; 2 ng/mL, 4 h, 10 °C, autosampler; relative to: nominal concentration): 3.3%
CNC(=O)c1ccc(-c2cnc3ncc(Cc4ccc5ncccc5c4)n3n2)cc1F — patients with adverse event (refers to: Insomnia; cancer patients; oral, 600 mg twice daily, all expansion cohorts, grade 3-4): 0%
CNCCOC12CC3(C)CC(C)(CC(Cn4ncc(-c5ccc(N6CCc7cccc(C(=O)Nc8nc9ccccc9s8)c7C6)nc5C(=O)O)c4C)(C3)C1)C2 — heart rate change (beagle dog, male, anaesthetised; intravenous bolus, 0.03 mg/kg, 105 min; relative to: baseline): -1%
CNC(=O)c1ccc(-c2cnc3ncc(Cc4ccc5ncccc5c4)n3n2)cc1F — Lymphocyte count decreased dose reduction/interruption (Japanese patients; oral, 400 mg, any grade): 1%
O=C(O)c1cccc(C(=O)O)c1 — apparent standard dissolution enthalpy (water; 303.0 K): 7.8 kcal/mol
Cc1cccc(CNC(=O)c2cn(CCNC(=O)c3ccccc3Sc3c([N+](=O)[O-])ncn3C)c3cc4c(cc3c2=O)OC(F)(F)O4)n1 — MRT(0-inf) (Sprague-Dawley rat, male, plasma; intravenous, 5 mg/kg of parent compound): 0.67 ± 0.09 h
Cc1ccc([C@@H]2O[C@H](CO)[C@@H](O)[C@H](O)[C@H]2O)cc1Cc1ccc(-c2ccc(F)cc2)s1 — urinary chloride excretion change (Japanese type 2 diabetes patients; 200 mg, day 16, 24 h urine collection; relative to: baseline): 8.81 mEq
C[C@@H](Oc1ccc(S(C)(=O)=O)cc1C(=O)N1C[C@@H]2C[C@]2(c2cc(C(F)(F)F)on2)C1)C(F)(F)F — half-life at steady state (young humans, plasma; oral, 75 mg once daily, multiple dose, geometric mean): 38.3 h
CC[C@H](Nc1ncnc2[nH]cnc12)c1oc2ccccc2c(=O)c1-c1cccc(F)c1 — elimination rate constant (human patients, plasma; oral, 400 mg twice daily, together with: romidepsin 12 mg/m2): 9.78e-05 ± 1.02e-05 s⁻¹
Cn1cc(-c2ccc(-c3cncc(Cl)c3N3CCC4(CCNC4=O)CC3)cc2)cn1 — log2 fold change (COLO 205; gene expression, microarray, refers to: HSPA1B (HSPA1A) mRNA; concentration not given, 6 h; relative to: untreated cells): 4.31
O=C(Nc1nc2cccc(-c3ccc(CN4CCS(=O)(=O)CC4)cc3)n2n1)C1CC1 — treatment-emergent adverse events (refers to: aspartate aminotransferase increased; human rheumatoid arthritis patients; oral, 200 mg once daily, 4 weeks, regardless of relatedness): 0%
CNCc1ccc(-c2[nH]c3cc(F)cc4c3c2CCNC4=O)cc1 — vomiting incidence (human patients; oral, 600 mg twice daily, grade 4): 0%
COCCOc1cnc2ccn([C@H](C)c3nnc4c(F)cc(-c5cnn(C)c5)cn34)c(=O)c2c1 — Cmax (patients, plasma; oral, 100 mg once daily, day 1): 1590 ng/mL
CN1CCN(c2cccc3c2CCN(C(=O)/C=C/c2c(-n4cnnn4)ccc(Cl)c2F)[C@@H]3C(=O)Nc2ccc(C(=O)O)cc2)C(=O)C1 — discontinuations due to adverse events (healthy human subjects; intravenous infusion, 1.5 mg/h, 2 h): 0%
CCC(C)n1ncn(-c2ccc(N3CCN(c4ccc(OCC5COC(Cn6cncn6)(c6ccc(Cl)cc6Cl)O5)cc4)CC3)cc2)c1=O (centres unmarked) — equilibrium solubility (aqueous medium; pH 2): 4 µg/mL
NC1(C(=O)N[C@@H](CCO)c2ccc(Cl)cc2)CCN(c2nc[nH]c3nccc2-3)CC1 — incidence of Diarrhoea (metastatic CRPC patients; 480 mg b.i.d., any grade, treatment-related, together with: enzalutamide 160 mg daily): 60%
C[C@H]1CN(C(=O)CC#N)[C@]12CCN(c1ncnc3[nH]ccc13)C2 — participants with catheter site bruise (human; oral, dose not given, all compound groups): 6.3%
C=CC(=O)N1CCC(Oc2cc3c(Nc4ccc(Cl)c(Cl)c4F)ncnc3cc2OC)CC1 — MRT(0-inf) (Sprague-Dawley rat, male, plasma; oral, 2 mg/kg, 1 weeks pretreatment, together with: Schisandrin A 20 mg/kg daily pretreatment): 5.68 ± 0.96 h
COc1ccc([C@@H](O)c2cc(-c3ncnc4cc(N5CCOCC5)ccc34)c(F)cc2Cl)nn1 — TEAE, general disorders (locally advanced rectal cancer; all dose levels overall, together with: capecitabine and radiotherapy): 74%
CNCc1ccc(-c2cc(-c3nc(-c4ccc(S(=O)(=O)C(C)C)cc4)cnc3N)on2)cc1 — neutrophils in white blood cells (female BALB/c mice; single dose, dose not given, 48 h, together with: total body irradiation 6 Gy): 48.2%
CCc1cc2c(cc1N1CCC(N3CCOCC3)CC1)C(C)(C)c1[nH]c3cc(C#N)ccc3c1C2=O — average plasma concentration (ALK inhibitor-naive patients; oral, 300 mg twice daily, week 6): 936 nM
CC(C)[C@@H](CS(=O)(=O)C(C)C)N1C(=O)[C@@](C)(CC(=O)O)C[C@H](c2cccc(Cl)c2)[C@H]1c1ccc(Cl)cc1 — AUC(0-inf) (FVB mouse, wild type, plasma; oral, 20 mg/kg): 3970 ± 665 ng·h/mL
OC(CCN1CCCCC1)(c1ccccc1)C1CC2C=CC1C2 (centres unmarked) — change in EEG Beta2-power Pz-O2 (resting-state EEG; healthy elderly humans; oral, 2 mg, eyes closed, LS mean; relative to: baseline): -7.4%
O=C(N[C@H](Cc1c[nH]c2ccccc12)C(=O)Nc1ccncc1)c1ccc(-c2cc(C(F)(F)F)ccc2F)cc1F — concentration (Swiss Webster mouse, female, muscle; oral, 50 mg/kg, 2 h, 20% HPβCD vehicle): 310 nM
O=C(Nc1ccc(OC(F)(F)Cl)cc1)c1cnc(N2CC[C@@H](O)C2)c(-c2ccn[nH]2)c1 — patients with event (refers to: Triglyceride increase, any grade; human patients, dose-finding study; oral, sample G of sample B patients): 70.2%
C[C@@H](NC(=O)N1C(=O)[C@H](Cc2ccnc(N)c2)[C@H]1C(=O)O)C1CCCCC1 — Css (UPLC-MS/MS; healthy adult Chinese volunteers, plasma; continuous intravenous infusion, 0.6 mg/kg/h, day 1 of 5-day infusion, geometric mean): 1600 ng/mL
C=CCN1CC(=O)N2[C@@H](Cc3ccc(O)cc3F)C(=O)N(Cc3cccc(N4CC(N5CCN(CC)CC5)C4)n3)C[C@@H]2N1C(=O)NCc1ccccc1 — treatment-related nausea (advanced solid tumour patients; oral, 120 mg twice daily, any grade, dose-escalation): 87.5%
C[C@H]1O[C@@H](O[C@H]2CC[C@@]3(C)[C@@H](CC[C@]4(C)[C@@H]3C=C[C@]35OC[C@@]6(CCC(C)(C)C[C@H]63)[C@@H](O)C[C@]54C)[C@]2(C)CO)[C@H](O)[C@@H](O[C@@H]2O[C@H](CO)[C@@H](O)[C@H](O)[C@H]2O)[C@H]1O — plasma concentration (UHPLC-MS/MS; mouse, plasma; oral, 50 mg/kg, 4 h, pooled samples): 1 ng/mL and 1.09 ng/mL
CC(C)C[C@H](NC(=O)C[C@H](O)[C@H](CC(C)C)NC(=O)[C@H](Cc1c[nH]cn1)NC(=O)CNC(=O)[C@@H](NC(=O)[C@H](C)NC(=O)[C@H](Cc1c[nH]c2ccccc12)NC(=O)[C@H](CCC(N)=O)NC(=O)[C@@H](Cc1ccccc1)NC(=O)COCCOCCNC(=O)CCC(C(=O)O)N1CCN(CC(=O)O)CCN(CC(=O)O)CCN(CC(=O)O)CC1)C(C)C)C(N)=O (some centres unmarked) [lutetium-177 labelled] — tissue uptake (female BALB/c nu/nu mice, kidneys; intravenous, 100 pmol, 2 h, together with: PA 300 µg): 3.5 ± 1 %ID/g
O=c1[nH]c(=O)n([C@H]2C[C@H](O)[C@@H](CO)O2)cc1CCCC[18F] — biodistribution (male CD-1 nu/nu mice, RG2 tumour, kidney; intravenous, dose not given, 2 h): 0.58 ± 0.1 %ID/g
Cc1cc(NC2CCN(C(=O)OC3CCN(C(=O)/C=C/CN(C)C)C3)CC2)n2ncc(C(C)C)c2n1 (centres unmarked) — patients with Ascites (patients with advanced solid tumours; dose not given, QD arm, any grade): 5%
CCc1ccc(-c2ccc(-c3cc(F)c(F)c(F)c3)c(F)c2)cc1 — placental accumulation (rat, placenta; 1000 ng/mL in perfusate, middle dose, mixture of 21 LCMs): 11.2 ± 12.1 ng/g
CC[C@@H]1[C@H](F)C(=O)N[C@@H]1COc1nccc2cc(C(N)=O)c(OC)cc12 — inhibition (MASTL (Homo sapiens, UniProt Q96GX5); ATP-site probe binding, ActivX profiling; THP-1 cell lysate; 0.01 mM, Lys1 site): -10.8%
Cc1c(C(=O)O)ccc2c3n(nc12)[C@@H]1[C@H](C3)N(CC2CC2)[C@@]2(C(=O)Nc3cc(Cl)ccc32)[C@H]1c1cccc(Cl)c1F — decreased WBC count incidence (human patients phase Ia; oral, dose not given, grade ≥3, all patients): 13%
CCC[C@@H](C)[C@H]1COC(C)(C)[C@@H](c2ccc(-c3ccccc3)cc2)N1 — solubility (shake-flask, LC-HRMS; aqueous buffer; 16 h, pH 6.8): < 4 µM
Cc1noc(C)c1Cn1cc(N2C(=O)CN(Cc3cccc(O)c3)C2=O)cn1 — remaining parent (pooled rat liver microsomes Sprague-Dawley; 1 µM, 10 min, pH 7.4): 68 % peak area
CCC[C@H](C)[C@H]1CN(C(=O)OCC)C[C@@H](c2ccc(C(C)(C)C)cc2)N1 — solubility (shake-flask, LC-HRMS; aqueous buffer; 16 h, pH 6.8): < 4 µM
CCc1cc(C(=O)NC)c2nccc(N3CCc4c(cc(Cn5ccnc5)cc4-c4cn(C)nc4C(F)(F)F)C3=O)c2c1 — change in clinical chemistry or haematology parameter (refers to: Mono; Sprague Dawley rat; oral, 100 mg/kg once daily, 7 days; relative to: vehicle): 24.6%
Cc1cc(-c2nccc3c2ccn3CC(=O)Nc2ccc(-c3cnccn3)cn2)ccn1 — subjects with any grade 3 TEAE (human; MAD part, 5 mg once daily): 0%
NCCONC(=O)[C@@H]1CC[C@@H]2CN1C(=O)N2OS(=O)(=O)O — elimination rate constant (human, plasma; intravenous infusion, 1 g multiple doses, day 9, phase I): 7.28e-05 s⁻¹
CCCCC1=NC2(CCCC2)C(=O)N1Cc1ccc(-c2ccccc2S(=O)(=O)Nc2noc(C)c2C)c(COCC)c1 — Cmax (healthy adult volunteers, plasma; oral, 1600 mg, single dose, fed, crushed tablet): 30800 ng/mL
CCCCC[C@H]1CC[C@H](c2ccc(OCC)c(F)c2F)CC1 — placental accumulation (rat, placenta; 1000 ng/mL in perfusate, middle dose, mixture of 21 LCMs): 21.9 ± 19.1 ng/g
COC(=O)c1ccccc1C1=c2cc3c4c(c2Oc2c1ccc1cccc(O)c21)CCC[N+]=4CCC3.[Cl-] — Stokes shift (12.5 mM aqueous NaOH; pH 12.1, 10% DMSO): 127 nm
O=c1[nH]c(=O)n([C@@H]2O[C@H](CO)[C@@H](O)[C@@H]2F)cc1CCCC[18F] — biodistribution (nude mice, RG2 tumour, lung; intravenous, dose not given, 2 h): 0.13 ± 0.03 %ID/g
CCN1/C(=C/C(C)=O)Sc2ccc(F)cc21 — diastolic blood pressure change (cynomolgus monkey; oral, 30 mg/kg, 1 h post-dose; relative to: pre-dose): 97.4 ± 5.9%
O=c1[nH]c(=O)n([C@H]2C[C@H](O)[C@@H](CO)O2)cc1CCCCC[18F] — biodistribution (male CD-1 nu/nu mice, RG2 tumour, kidney; intravenous, dose not given, 2 h): 0.55 ± 0.12 %ID/g
Cn1cnc2ccc(Nc3c(F)ccc(NS(=O)(=O)N4CC(F)C4)c3Cl)c(Cl)c2c1=O — patients with lipase increased (refers to: grade 1-2, lipase increased; human patients; dose not given, monotherapy trial; relative to: patients): 3%

For quick reference, copied from above:
CNCc1ccc(-c2[nH]c3cc(F)cc4c3c2CCNC4=O)cc1 — vomiting incidence (human patients; oral, 600 mg twice daily, grade 4): 0%
CNCc1ccc(-c2cc(-c3nc(-c4ccc(S(=O)(=O)C(C)C)cc4)cnc3N)on2)cc1 — neutrophils in white blood cells (female BALB/c mice; single dose, dose not given, 48 h, together with: total body irradiation 6 Gy): 48.2%
CCC(C)n1ncn(-c2ccc(N3CCN(c4ccc(OCC5COC(Cn6cncn6)(c6ccc(Cl)cc6Cl)O5)cc4)CC3)cc2)c1=O (centres unmarked) — equilibrium solubility (aqueous medium; pH 2): 4 µg/mL
CC(C)[C@@H](CS(=O)(=O)C(C)C)N1C(=O)[C@@](C)(CC(=O)O)C[C@H](c2cccc(Cl)c2)[C@H]1c1ccc(Cl)cc1 — AUC(0-inf) (FVB mouse, wild type, plasma; oral, 20 mg/kg): 3970 ± 665 ng·h/mL
C[C@H]1O[C@@H](O[C@H]2CC[C@@]3(C)[C@@H](CC[C@]4(C)[C@@H]3C=C[C@]35OC[C@@]6(CCC(C)(C)C[C@H]63)[C@@H](O)C[C@]54C)[C@]2(C)CO)[C@H](O)[C@@H](O[C@@H]2O[C@H](CO)[C@@H](O)[C@H](O)[C@H]2O)[C@H]1O — plasma concentration (UHPLC-MS/MS; mouse, plasma; oral, 50 mg/kg, 4 h, pooled samples): 1 ng/mL and 1.09 ng/mL
O=c1[nH]c(=O)n([C@H]2C[C@H](O)[C@@H](CO)O2)cc1CCCC[18F] — biodistribution (male CD-1 nu/nu mice, RG2 tumour, kidney; intravenous, dose not given, 2 h): 0.58 ± 0.1 %ID/g
Cc1cccc(CNC(=O)c2cn(CCNC(=O)c3ccccc3Sc3c([N+](=O)[O-])ncn3C)c3cc4c(cc3c2=O)OC(F)(F)O4)n1 — MRT(0-inf) (Sprague-Dawley rat, male, plasma; intravenous, 5 mg/kg of parent compound): 0.67 ± 0.09 h
